Published values gathered from unrelated publications.
Parts stem from different laboratories: compare values within a part only. Values joined by “and” are separate records of one study, mostly repeats; a detail may differ.
UniProt O00329, sequence (whole entry, looked up): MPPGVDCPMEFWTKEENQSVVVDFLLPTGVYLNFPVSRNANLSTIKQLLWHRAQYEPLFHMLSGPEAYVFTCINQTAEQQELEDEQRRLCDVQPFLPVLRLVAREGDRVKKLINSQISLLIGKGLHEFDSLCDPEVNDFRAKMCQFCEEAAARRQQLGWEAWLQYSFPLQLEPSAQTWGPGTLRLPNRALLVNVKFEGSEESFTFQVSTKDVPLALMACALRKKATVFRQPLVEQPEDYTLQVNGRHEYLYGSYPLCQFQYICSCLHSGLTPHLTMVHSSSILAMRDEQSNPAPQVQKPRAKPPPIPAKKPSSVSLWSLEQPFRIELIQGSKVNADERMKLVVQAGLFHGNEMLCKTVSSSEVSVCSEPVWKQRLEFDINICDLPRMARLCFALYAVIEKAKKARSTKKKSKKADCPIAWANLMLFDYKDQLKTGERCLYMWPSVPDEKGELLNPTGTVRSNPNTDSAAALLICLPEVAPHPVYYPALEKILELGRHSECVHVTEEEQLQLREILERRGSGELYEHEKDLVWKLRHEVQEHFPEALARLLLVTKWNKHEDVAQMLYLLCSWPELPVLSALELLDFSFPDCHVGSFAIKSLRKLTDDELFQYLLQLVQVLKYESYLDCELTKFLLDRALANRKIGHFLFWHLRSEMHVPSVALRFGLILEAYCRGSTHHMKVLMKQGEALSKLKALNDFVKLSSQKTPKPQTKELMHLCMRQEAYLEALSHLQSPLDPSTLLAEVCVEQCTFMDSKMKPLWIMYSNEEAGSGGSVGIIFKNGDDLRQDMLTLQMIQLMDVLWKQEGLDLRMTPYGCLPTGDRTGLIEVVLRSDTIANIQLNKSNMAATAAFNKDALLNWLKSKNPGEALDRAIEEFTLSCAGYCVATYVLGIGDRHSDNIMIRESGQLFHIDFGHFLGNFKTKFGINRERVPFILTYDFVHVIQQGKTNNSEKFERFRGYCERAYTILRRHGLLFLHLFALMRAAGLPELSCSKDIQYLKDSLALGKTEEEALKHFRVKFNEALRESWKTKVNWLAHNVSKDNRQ
UniProt P10721, sequence (whole entry, unmodified, looked up): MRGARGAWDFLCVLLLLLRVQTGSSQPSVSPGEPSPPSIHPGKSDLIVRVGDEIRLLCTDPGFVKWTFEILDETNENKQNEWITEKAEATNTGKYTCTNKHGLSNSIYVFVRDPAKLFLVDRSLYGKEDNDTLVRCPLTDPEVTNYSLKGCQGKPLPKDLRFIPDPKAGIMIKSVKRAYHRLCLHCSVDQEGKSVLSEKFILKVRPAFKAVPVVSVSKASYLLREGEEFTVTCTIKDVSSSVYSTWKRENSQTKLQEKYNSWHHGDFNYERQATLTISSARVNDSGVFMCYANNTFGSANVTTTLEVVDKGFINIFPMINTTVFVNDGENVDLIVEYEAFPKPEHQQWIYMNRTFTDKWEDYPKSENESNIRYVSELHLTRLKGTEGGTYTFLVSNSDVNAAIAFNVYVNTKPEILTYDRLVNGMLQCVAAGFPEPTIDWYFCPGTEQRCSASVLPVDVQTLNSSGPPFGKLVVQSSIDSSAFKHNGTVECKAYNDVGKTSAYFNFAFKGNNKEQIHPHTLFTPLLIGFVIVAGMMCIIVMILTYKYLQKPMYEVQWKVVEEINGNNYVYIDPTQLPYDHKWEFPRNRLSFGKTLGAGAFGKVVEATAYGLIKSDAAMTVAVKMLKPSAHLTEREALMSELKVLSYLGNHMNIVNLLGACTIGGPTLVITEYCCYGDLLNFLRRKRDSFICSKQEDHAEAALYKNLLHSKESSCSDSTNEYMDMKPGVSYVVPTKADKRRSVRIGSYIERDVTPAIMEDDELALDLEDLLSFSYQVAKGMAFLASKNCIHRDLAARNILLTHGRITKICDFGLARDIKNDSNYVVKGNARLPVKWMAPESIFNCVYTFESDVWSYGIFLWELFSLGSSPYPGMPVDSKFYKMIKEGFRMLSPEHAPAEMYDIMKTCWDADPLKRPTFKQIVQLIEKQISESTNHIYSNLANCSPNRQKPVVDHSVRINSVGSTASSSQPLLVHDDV
UniProt Q8TDC3, sequence (whole entry, looked up): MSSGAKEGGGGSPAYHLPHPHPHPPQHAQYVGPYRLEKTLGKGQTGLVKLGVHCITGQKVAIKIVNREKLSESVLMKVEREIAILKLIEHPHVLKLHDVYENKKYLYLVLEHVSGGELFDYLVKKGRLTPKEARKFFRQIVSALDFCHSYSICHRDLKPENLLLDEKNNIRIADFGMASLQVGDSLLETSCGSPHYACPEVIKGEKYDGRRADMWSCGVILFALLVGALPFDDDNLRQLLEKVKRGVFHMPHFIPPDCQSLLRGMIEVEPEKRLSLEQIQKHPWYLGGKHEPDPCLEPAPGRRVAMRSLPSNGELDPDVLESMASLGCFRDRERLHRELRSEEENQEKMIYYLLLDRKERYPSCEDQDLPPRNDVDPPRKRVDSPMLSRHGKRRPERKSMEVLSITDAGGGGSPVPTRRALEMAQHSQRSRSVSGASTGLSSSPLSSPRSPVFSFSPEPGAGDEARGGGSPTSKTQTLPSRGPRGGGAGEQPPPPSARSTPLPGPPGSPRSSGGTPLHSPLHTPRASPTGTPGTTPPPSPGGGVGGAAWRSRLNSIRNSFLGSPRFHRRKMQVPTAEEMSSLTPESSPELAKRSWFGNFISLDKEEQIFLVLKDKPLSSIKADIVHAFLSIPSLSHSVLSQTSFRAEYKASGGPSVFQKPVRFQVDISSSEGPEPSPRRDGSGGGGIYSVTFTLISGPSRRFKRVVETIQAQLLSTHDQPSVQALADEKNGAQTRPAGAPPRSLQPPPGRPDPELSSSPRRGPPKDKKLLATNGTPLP
UniProt P04049, sequence (whole entry, looked up): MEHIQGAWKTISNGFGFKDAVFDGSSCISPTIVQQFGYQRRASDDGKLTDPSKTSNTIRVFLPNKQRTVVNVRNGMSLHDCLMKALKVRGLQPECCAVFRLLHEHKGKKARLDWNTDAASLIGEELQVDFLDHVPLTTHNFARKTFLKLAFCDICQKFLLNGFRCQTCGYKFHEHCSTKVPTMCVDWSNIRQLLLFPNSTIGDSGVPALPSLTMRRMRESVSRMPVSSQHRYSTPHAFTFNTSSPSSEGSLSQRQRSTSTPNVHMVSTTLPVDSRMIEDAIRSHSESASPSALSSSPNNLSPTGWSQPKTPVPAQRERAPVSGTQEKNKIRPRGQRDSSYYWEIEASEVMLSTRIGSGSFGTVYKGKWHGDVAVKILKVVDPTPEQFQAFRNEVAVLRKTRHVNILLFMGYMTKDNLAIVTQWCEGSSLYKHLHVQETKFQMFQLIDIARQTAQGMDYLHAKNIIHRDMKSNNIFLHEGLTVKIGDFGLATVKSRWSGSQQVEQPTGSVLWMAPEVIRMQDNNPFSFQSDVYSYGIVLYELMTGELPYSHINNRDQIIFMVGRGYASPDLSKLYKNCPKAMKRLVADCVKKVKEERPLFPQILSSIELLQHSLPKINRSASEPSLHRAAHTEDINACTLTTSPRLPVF
UniProt Q13043, sequence (whole entry, looked up): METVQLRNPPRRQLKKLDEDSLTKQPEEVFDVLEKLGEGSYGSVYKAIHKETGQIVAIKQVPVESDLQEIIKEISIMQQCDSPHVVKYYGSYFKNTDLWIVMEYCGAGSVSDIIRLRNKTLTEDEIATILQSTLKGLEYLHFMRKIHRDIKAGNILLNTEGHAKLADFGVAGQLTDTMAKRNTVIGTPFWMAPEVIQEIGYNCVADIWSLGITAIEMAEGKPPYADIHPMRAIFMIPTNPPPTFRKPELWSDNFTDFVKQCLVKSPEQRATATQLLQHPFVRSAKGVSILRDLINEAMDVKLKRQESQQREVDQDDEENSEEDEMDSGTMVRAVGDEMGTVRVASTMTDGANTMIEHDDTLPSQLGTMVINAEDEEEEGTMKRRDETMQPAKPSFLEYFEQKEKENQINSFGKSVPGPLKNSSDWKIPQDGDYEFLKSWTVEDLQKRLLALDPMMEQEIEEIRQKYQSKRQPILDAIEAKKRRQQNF
UniProt P51812, sequence (whole entry, looked up): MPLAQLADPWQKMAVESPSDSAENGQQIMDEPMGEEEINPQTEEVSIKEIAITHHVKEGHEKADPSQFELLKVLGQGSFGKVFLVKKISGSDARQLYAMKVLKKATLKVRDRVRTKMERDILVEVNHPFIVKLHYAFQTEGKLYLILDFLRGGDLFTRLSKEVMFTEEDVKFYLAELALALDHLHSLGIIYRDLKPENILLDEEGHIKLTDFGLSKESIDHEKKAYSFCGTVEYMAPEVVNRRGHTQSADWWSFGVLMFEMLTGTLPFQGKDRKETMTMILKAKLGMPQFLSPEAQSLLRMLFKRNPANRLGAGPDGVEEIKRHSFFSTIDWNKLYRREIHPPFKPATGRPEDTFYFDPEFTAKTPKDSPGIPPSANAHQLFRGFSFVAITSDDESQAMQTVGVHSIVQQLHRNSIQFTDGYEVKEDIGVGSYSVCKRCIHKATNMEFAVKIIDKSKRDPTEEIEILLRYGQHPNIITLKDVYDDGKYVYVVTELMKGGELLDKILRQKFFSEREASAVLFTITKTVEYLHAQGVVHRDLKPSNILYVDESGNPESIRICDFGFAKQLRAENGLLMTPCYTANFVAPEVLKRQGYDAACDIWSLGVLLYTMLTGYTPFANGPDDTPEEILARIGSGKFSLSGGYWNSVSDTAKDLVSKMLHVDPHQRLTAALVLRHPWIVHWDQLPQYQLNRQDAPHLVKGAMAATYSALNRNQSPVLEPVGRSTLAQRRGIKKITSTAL

Block 1
Target: MAP kinase-activated protein kinase 2 (MAPKAPK2, Homo sapiens, UniProt P49137)
UniProt P49137, sequence (whole entry, looked up): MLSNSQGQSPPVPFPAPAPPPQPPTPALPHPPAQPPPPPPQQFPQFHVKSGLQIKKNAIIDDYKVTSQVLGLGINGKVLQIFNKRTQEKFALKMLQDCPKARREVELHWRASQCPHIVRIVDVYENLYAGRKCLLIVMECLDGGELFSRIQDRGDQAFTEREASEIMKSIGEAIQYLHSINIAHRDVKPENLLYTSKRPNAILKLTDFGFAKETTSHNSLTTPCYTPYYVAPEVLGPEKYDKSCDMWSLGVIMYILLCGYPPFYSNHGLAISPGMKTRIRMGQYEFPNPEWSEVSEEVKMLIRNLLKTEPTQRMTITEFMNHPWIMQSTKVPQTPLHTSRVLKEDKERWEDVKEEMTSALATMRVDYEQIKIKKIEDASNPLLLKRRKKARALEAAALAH
Effect on: enzyme activity
Action: inhibitor
Concentration: 0.5 µM
Reference: control
Structure (SMILES) | remaining activity
Cc1cn(-c2cc(NC(=O)c3ccc(C)c(Nc4nccc(-c5cccnc5)n4)c3)cc(C(F)(F)F)c2)cn1 | 94.2%
COc1cc2ncnc(Nc3cccc(Cl)c3)c2cc1OC | 98%
O=C(Nc1cccc(Nc2nccc(Nc3cccc(C(F)(F)F)c3)n2)c1)C1CC1 | 102%
N#Cc1c(NC(=O)c2cccc3ccccc23)sc2c1CCCC2 | 103%
CN(C)C[C@H]1CCn2c(c(C3=C(c4cn(C)c5ccccc45)C(=O)NC3=O)c3ccccc32)C1 | 102%
Cc1nc2cc3nc(-c4cccs4)cnc3cc2n1C | 95.4%
CCOc1nc(NC(=O)Cc2cc(OC)ccc2OC)cc(N)c1C#N | 103%
COc1cc2c(cc1OC)-c1[nH]nc(Nc3cccc(F)c3)c1C2 | 97.2%
c1ccc(-c2[nH]ncc2-c2ccnc3ccccc23)nc1 | 100%
N#C/C(=C\c1ccc(O)c(O)c1)C(=O)NCc1ccccc1 | 101%
Nc1cccc(-c2cc3c(Oc4cccc(O)c4)ncnc3[nH]2)c1 | 108%

Block 2
Compound: CO[C@H]1CC[C@H](CNc2ccc(S(=O)(=O)NC(=O)c3ccc(N4CCN(CC5=C(c6ccc(Cl)cc6)CC(C)(C)CC5)CC4)cc3Oc3cnc4[nH]ccc4c3)cc2[N+](=O)[O-])CC1
Effect on: cell-free assay
Technique: competition with immobilised ligand
Concentration: 1 µM
target | remaining binding [%]
RAF1 (Homo sapiens, UniProt P04049) | 94
SNRK (Homo sapiens, UniProt Q9NRH2) | 100
STK4 (Homo sapiens, UniProt Q13043) | 84
KIT (Homo sapiens, UniProt P10721, V559D/V654A) | 93
BRSK1 (Homo sapiens, UniProt Q8TDC3) | 100
Tyrosine-protein kinase ABL1, non-phosphorylated (ABL1, Homo sapiens, UniProt P00519, H396P) | 92
SRMS (Homo sapiens, UniProt Q9H3Y6) | 89
PIK3CD (Homo sapiens, UniProt O00329) | 75
FGFR2 (Homo sapiens, UniProt P21802) | 100
Ribosomal protein S6 kinase alpha-3, N-terminal kinase domain (RPS6KA3, Homo sapiens, UniProt P51812) | 71

Other studies, line by line
SMILES | assay | system | setting | quantity | result
CC(C)S(=O)(=O)c1cc2c(Nc3ccc4sc(C5CCCC5)nc4c3)ccnc2cc1OCCO | CCK-8 | L929 RIPK3 knockout, mouse | MEM with 10% FBS | CC50 | 48.8 µM and 43.3 µM
CC(C)n1cnc(-c2ccc(F)cc2)c1-c1ncc(C(=O)Nc2ccc(N3CCN(C)CC3)cc2)[nH]1 | – | IPF patients | 30 mg once daily, adverse event | Eosinophilia incidence | 0%

Some of these lines once more (other studies, line by line):
SMILES | assay | system | setting | quantity | result
CC(C)n1cnc(-c2ccc(F)cc2)c1-c1ncc(C(=O)Nc2ccc(N3CCN(C)CC3)cc2)[nH]1 | – | IPF patients | 30 mg once daily, adverse event | Eosinophilia incidence | 0%
